# Measurements of several laboratories.
# Each line is one published result; not all experiments were run side by side.
SMILES,test,test system,setting,measurement,result
CN(C)C(=O)c1cc2cnc(Nc3ccc(N4CCNCC4)cn3)nc2n1C1CCCC1,"measured: Infections, AESI","human, HR+/HER2− advanced breast cancer","oral, dose not given, grade 3, CTCAE v4.03",patients with adverse event,4.8%
C[C@]1(O)C[C@@](N)(c2ccc(-c3nc4n(c3-c3ccccc3)COc3ccncc3-4)cc2)C1,,"human, advanced or metastatic solid tumours","intermittent, dose escalation total, any grade",patients with Anemia TEAE,0%
Cn1cncc1-c1c(F)cncc1NC(=O)c1c(N)nn2cc(F)cnc12,,human patients,"oral, 180 mg once daily, 2 weeks on 1 week off",patients grade ≥3 Lymphocyte count decrease,14%
C=CC(=O)Nc1cc(Nc2nccc(Nc3cc(Cl)c(F)cc3C(C)(C)O)n2)c(OC)cc1N1CC[C@@H](N(C)C)C1,,human patients,"oral, 50 mg, treatment-emergent adverse events",patients with nausea,16.7%
Cn1nc(NS(C)(=O)=O)c2c(Cl)ccc(-n3c([C@H](Cc4cc(F)cc(F)c4)NC(=O)Cn4nc(C(F)F)c5c4C(F)(F)[C@@H]4C[C@H]54)nc4nc(OCCC(F)(F)F)ccc4c3=O)c21,measured: total cholesterol grade 3 increase,human,"200 mg once daily, powder in bottle",patients with laboratory abnormality,0%
COc1ccc(-c2c(-c3ccc(C#N)c(F)c3)nc(N3CCC(N)CC3)n(C)c2=O)cc1F,measured: oxygen saturation decreased,human patients,"oral, 60 mg, dose expansion",patients with serious TEAE,5%
CN[C@@H](C)C(=O)N[C@H]1CN(S(=O)(=O)c2cccc(S(=O)(=O)N3CC[C@H]4CC[C@@H](C(=O)NC(c5ccccc5)c5ccccc5)N4C(=O)[C@@H](NC(=O)[C@H](C)NC)C3)c2)CC[C@H]2CC[C@@H](C(=O)NC(c3ccccc3)c3ccccc3)N2C1=O,,"human, advanced solid tumours",12 mg,patients with treatment-related asthenia,0%
CNC(=O)c1cc(Oc2ccc(NC(=O)Nc3cc(C(C)(C)C)nn3-c3ccc4ncccc4c3)c(F)c2)ccn1,,"human, trial","oral, dose not given, all doses",patients with related serious Death AE,2%
COc1ncnn2ccc(-c3cnc4nc(C)n(Cc5nnc([C@@H](C)F)o5)c4c3)c12,,human,"oral, dose not given, grade 5",patients with hypotension,0%
O=C1Nc2cc3[nH]nc(-c4ccncc4)c3cc2CN1Cc1ccccc1,CTCAE v4.03,"human, relapsed or refractory advanced solid tumours","intravenous, 9.6 mg/kg, pooled schedules",patients with vomiting,33%
C[C@@H]1OC(=O)NN=C1c1ccc(-c2ccc(F)cc2)c(C(F)(F)F)c1,"phase I trial, measured: Pneumonitis all grades",human patients,"dose not given, all dose groups",patients with adverse event,20%
C=CCNc1c(O)cc2c(O)c1C[C@@H](C)C[C@H](OC)[C@H](O)[C@@H](C)/C=C(\C)[C@H](OC(N)=O)[C@@H](OC)/C=C\C=C(/C)C(=O)N2,,human unresectable metastatic GIST or sarcoma,"intravenous, dose not given, treatment-emergent, all doses",patients with back pain,22%
Cc1cn([C@H]2O[C@@H](CO[P@@](=O)(N[C@@H](C)C(=O)OC(C)C)Oc3ccccc3)[C@H](O)[C@H]2F)c(=O)[nH]c1=O,measured: common cold,human,25 mg,patients with TEAE,0%

# Repeated from above:
SMILES,test,test system,setting,measurement,result
Cn1nc(NS(C)(=O)=O)c2c(Cl)ccc(-n3c([C@H](Cc4cc(F)cc(F)c4)NC(=O)Cn4nc(C(F)F)c5c4C(F)(F)[C@@H]4C[C@H]54)nc4nc(OCCC(F)(F)F)ccc4c3=O)c21,measured: total cholesterol grade 3 increase,human,"200 mg once daily, powder in bottle",patients with laboratory abnormality,0%
